Measured values from different studies.
Values joined by “and” are separate records of one study, mostly repeats; a detail may differ. Numbers after ± are the reported error.

COCCOc1cnc2ccn([C@H](C)c3nnc4c(F)cc(-c5cnn(C)c5)cn34)c(=O)c2c1
duration of response (human; 200 mg twice daily): 232 days

CN(C)C(=O)c1cc2cnc(Nc3ccc(N4CCNCC4)cn3)nc2n1C1CCCC1
median PFS2 (HR+/HER2− advanced breast cancer patients; dose not given, no (neo)adjuvant hormone therapy): 50.5 months

COc1nnc2ccc(N3CCC(c4ccc(OCCN5CCN(C)C(=O)[C@H]5C)cc4)CC3)nn12
time above HEXIM1 threshold (human patients; 30 mg once daily, above baseline variability): 5.62 h

COC(=O)c1ccc2c(c1)NC(=O)/C2=C(\Nc1ccc(N(C)C(=O)CN2CCN(C)CC2)cc1)c1ccccc1
lung tissue density (rat, bleomycin lung fibrosis; oral, 60 mg/kg daily, day 14): inhibited

N=C(N)NCCC[C@H](NC(=O)[C@H](CCCNC(=N)N)NC(=O)[C@H](CCCCN)NC(=O)[C@H](CCC(N)=O)NC(=O)[C@H](CCCCN)NC(=O)[C@H](Cc1ccc(O)cc1)NC(=O)[C@@H](N)CCCCN)C(=O)N[C@@H](CO)C(=O)N[C@@H](Cc1ccc(O)cc1)C(=O)N[C@@H](CCCCN)C(=O)O
VAS change (dentin hypersensitivity patients; 10 µg/tooth, day 36 post-study visit, two teeth per subject, unit not given; relative to: baseline): -19 ± 18

c1ccc(-c2n[nH]cc2-c2ccnc3ccccc23)nc1
log2 fold change (kinase binding, competitor, MIB/MS competition, measured: RIO2; Candida albicans cell lysate; 1 µM; relative to: DMSO): 0.937

CN(C)C(=N)N=C(N)N
IC15 (barrier function (TEER); human ileal GI microtissue EpiIntestinal-FT): > 100000 nM

Cc1cc(C)c(CNC(=O)c2cc(Cl)c3c(c2C)O[C@@](C)([C@H]2CC[C@H](N(C)C)CC2)O3)c(=O)[nH]1
best overall response PD (IWG 2007 criteria; human, relapsed/refractory B-cell NHL; dose not given): 11%

O=C(O)/C=C/c1nccc2c3ccccc3n(Cc3ccc(Br)c4ccccc34)c12
serum uric acid decrease (mouse, acute hyperuricaemia model, serum; oral, 2 mg/kg; relative to: vehicle model): 78.8%

CN(C)C(=O)Oc1cccc([N+](C)(C)C)c1
train-of-four ratio (neuromuscular block reversal; rat; dose not given, 21.5 (unit not given), together with: cisatracurium; relative to: T1 twitch): 98.4

CC(C)NCC(O)c1ccc(O)c(O)c1 (centres unmarked)
sarcomere length (ventricular cardiomyocytes, C57BL/6 mouse; dose not given, 0.488 s): 1.55 µm

O=C(O)CCc1nccc2c3ccccc3n(Cc3ccc(C4CC4)c4ccccc34)c12
serum uric acid (mouse, acute hyperuricaemia model, serum; oral, 2 mg/kg, individual animal data): 330 µM and 599 µM and 437 µM

C[C@H](Oc1ccc(Br)cc1-c1ccon1)C(=O)O
difference from placebo (mean CMAP amplitude; human, tibialis anterior muscle; 100 mg, SAD): 0.128 mV

C[C@@H](NC(=O)N1C(=O)[C@H](Cc2ccnc(N)c2)[C@H]1C(=O)O)C1CCCCC1
time to aPTT Emax (human; iv infusion, 2.25 mg/kg/h, 24 h): 96 h

CCO[C@H]1CCN(Cc2c(OC)cc(C)c3[nH]ccc23)[C@H](c2ccc(C(=O)O)cc2)C1
C3d-positive type III RBCs (PNH patients, blood; oral, 25 mg then 100 mg, week 4, mean absolute change; relative to: baseline): -0.9%

N#Cc1ccc2c(-c3ccncc3)c(-c3ccc(F)cc3)nn2c1
log2 fold change (kinase binding, competitor, MIB/MS competition, measured: MKK2; Candida albicans cell lysate; 10 µM; relative to: DMSO): 0.559

O=C(O)/C=C/c1nccc2c3ccccc3n(Cc3ccc(Br)cc3)c12
serum uric acid (mouse, acute hyperuricaemia model, serum; oral, 2 mg/kg, individual animal data): 743 µM and 965 µM and 719 µM and 990 µM

Cn1cc(Nc2nccc(-c3ccc4c(c3)CN(C3COC3)CC[C@H]4NC(=O)c3cn(C(C)(C)C)nn3)n2)cn1
pathway activation z-score (measured: TREM1 signalling; mouse splenic B cells, mouse; 30 mg/kg, IgD-activated B cells in vivo; relative to: vehicle, direction not given): 3.15

[Cl-].[Cl-].[Pt+2].[Ru+2].c1ccc(-c2nc3cc4ccccc4cc3nc2-c2ccccn2)nc1.c1cnc2c(c1)ccc1cccnc12.c1cnc2c(c1)ccc1cccnc12
activation enthalpy (concentration not given, first substitution step, together with: guanosine 5'-monophosphate): 7.65 ± 0.956 kcal/mol

CC(C)C[C@H](NC(=O)[C@@H](Cc1c[nH]c2ccccc12)NC(=O)[C@H](Cc1ccc(O)cc1)NC(=O)[C@H](CO)NC(=O)[C@H](Cc1c[nH]c2ccccc12)NC(=O)[C@H](Cc1c[nH]cn1)NC(=O)[C@@H]1CCC(=O)N1)C(=O)N[C@@H](CCCNC(=N)N)C(=O)N1CCC[C@H]1C(=O)NCC(N)=O
basal LH level (Chinese children, central precocious puberty, serum; intramuscular, 22.5 mg day 1, month 6, month 9): 0.35 IU/L

C[C@H]1C[C@H]2CSC(N)=N[C@@]2(c2nc(NC(=O)c3ccc(OC(F)F)cn3)cs2)CO1
percent change from baseline (measured: Aβx-40; healthy adults, plasma; 15 mg once daily, day 10; relative to: placebo): -50.9%

C=CCn1c(=O)c2cnc(Nc3ccc(N4CCN(C)CC4)cc3)nc2n1-c1ccc2c(n1)[C@@](O)(CC)CC2
tumour growth inhibition (CB17 SCID mice, 22Rv1 xenograft; oral, 80 mg/kg, day 19, 5 d on 2 d off, 3 cycles; relative to: control): 38.2%

OC(CCN1CCCCC1)(c1ccccc1)C1CC2C=CC1C2 (centres unmarked)
EEG power, delta, Fz-Cz (resting-state EEG; healthy elderly humans; oral, 4 mg, eyes closed, LS mean): 7.7 µV²

O=C(O)CNC(=O)Cc1ccccc1
sarcomere length (ventricular cardiomyocytes, C57BL/6 mouse; dose not given, 0.492 s): 1.65 µm

COc1ccc(-c2cncc(N[C@@H](C)c3cccc(NC(=O)c4cncc(C)c4)c3)n2)cc1OC
delta delta Ct (measured: rno-miR-17-5p; rat SU5416/hypoxia model, lung; dose not given, unit not given; relative to: SU5416/hypoxia vehicle): -0.745

Cc1cnc(N2CC3(CCOCC3)C2)c(C(=O)Nc2ccc(C(=O)N3CCc4cc(C(=O)Nc5c(C)cccc5F)sc4-c4ccccc43)cc2)c1
inhibition (measured: Periostin; human RSV infection, nasal wash; dose not given, AUC, ITT-IS population; relative to: placebo): 13%

[Cl-].[Cl-].[Pt+2].[Ru+2].c1ccc(-c2nccnc2-c2ccccn2)nc1.c1cnc2c(c1)ccc1cccnc12.c1cnc2c(c1)ccc1cccnc12
activation enthalpy (concentration not given, first substitution step, together with: guanosine 5'-monophosphate): 10.5 ± 0.717 kcal/mol

CC(C)[C@H](NC(=O)[C@H](Cc1ccc(O)cc1)NC(=O)[C@H](Cc1ccc(O)cc1)NC(=O)[C@@H]1CCCN1C(=O)[C@H](CCC(=O)O)NC(=O)[C@H](CCC(=O)O)NC(=O)[C@H](Cc1c[nH]c2ccccc12)NC(=O)[C@@H]1CCCN1C(=O)[C@@H](NC(=O)[C@H](CCC(N)=O)NC(=O)c1ccc2c(c1)C(=O)OC21c2ccc(O)cc2Oc2cc(O)ccc21)C(C)C)C(=O)N[C@H](C(=O)N[C@@H](CCCCN)C(=O)N[C@@H](CCCCN)C(=O)N[C@@H](CO)C(=O)N[C@@H](CO)C(=O)NCC(=O)NCC(N)=O)C(C)C
surgeons rating improved (nerve discrimination; head and neck surgery patients; 500 mg; relative to: white light): 14.2%

C[C@@H](O)CCOC(=O)C[C@@H](C)O
metabolite level (measured: C5 acylcarnitine; human, plasma; 60 min, log2-transformed values): -2.89 ± 0.74 µmol/L

O=C(COc1ccc(Cl)cc1)NC12CC(c3nnc([C@H]4C[C@@H](OC(F)(F)F)C4)o3)(C1)C2
CHAC1 mRNA change (healthy human, PBMC; oral, 400 mg single dose, day 1, 4 h post-dose, median, together with: sodium arsenite ex vivo; relative to: baseline): -59.8%

COc1cc2cc(-c3ccc(CC(=O)Nc4cc(C(C)(C)C(F)(F)F)no4)cn3)cnc2cc1OC
best overall response PD (RECIST v1.1; human RET-altered solid tumours; dose not given, phase I): 28%

CSCCNc1nc(SCCC(F)(F)F)nc2c1ncn2[C@@H]1O[C@H](COP(=O)(O)OP(=O)(O)C(Cl)(Cl)P(=O)(O)O)[C@@H](O)[C@H]1O
high residual platelet reactivity (ADP-induced platelet aggregation, light transmittance aggregometry; human patients, platelet-rich plasma; dose not given, 2 h, aggregation above 59%, together with: ADP 20 µM; relative to: patients): 50%

Cn1cc([C@H]2C[C@H]3CSC(N)=N[C@@]3(c3ccc(F)cc3F)CO2)cn1
Aβ42 level (measured: Aβx-42; Mus musculus wild-type, brain; subcutaneous, 50 mg/kg, 6 h): 0.23 ng/g

CO[C@H]1CC[C@H](N2C(=O)CNc3ncc(-c4ccc(C(C)(C)O)nc4)nc32)CC1
pAKT change from baseline (flow cytometry; stimulated monocytes, human, blood; 60 mg single dose, 5 h, median; relative to: baseline): -51%

NC(=O)c1cnc2[nH]ccc2c1N[C@@H]1[C@@H]2CC3C[C@H]1C[C@@](O)(C3)C2
percent change (CD8+ memory T cells, flow cytometry; Japanese humans, peripheral blood; 60 mg single dose; relative to: baseline): 0.62%

CCOCc1nc(O)c(-c2nnc(Cc3ccc(Cl)cn3)o2)c(O)c1-c1c(OC)cccc1OC
ejection fraction (renal hypertensive rat; po, 0.2 mg/kg once daily, trough; relative to: vehicle): increased

O=C(O)/C=C/c1nccc2c3ccccc3n(Cc3ccc(C4CC4)c4ccccc34)c12
serum uric acid (mouse, acute hyperuricaemia model, serum; oral, 2 mg/kg, individual animal data): 423 µM and 378 µM and 372 µM

Cc1ccc([C@@H]2O[C@H](CO)[C@@H](O)[C@H](O)[C@H]2O)cc1Cc1ccc(-c2ccc(F)cc2)s1
change in fasting serum insulin (Japanese type 2 diabetes patients; 100 mg, day 17; relative to: day 1): -1.1 µU/mL

[Mn+2]
CD18-low cell fraction (flow cytometry; CD4-low T cells from PBMC, BALB/c mouse; dose not given; relative to: no Mn2+): 56.6 and 83 and 66.1 and 77 and 77.2 and 71 and 79.5 and 64.5

Cc1n[nH]c2ccc(-c3cc(OC[C@@H](N)Cc4ccccc4)cnc3-c3ccoc3)cc12
log2 fold change (kinase binding, competitor, MIB/MS competition, measured: YAK1; Candida albicans cell lysate; 1 µM; relative to: DMSO): -0.0276

CC(=O)NCC(=O)NCC(=O)N[C@H](C(=O)N[C@@H](Cc1ccc(O)cc1)C(=O)N[C@@H](CO)C(=O)N[C@H]1CSSC[C@@H](C(=O)N[C@@H](CCCNC(=N)N)C(=O)N2CCC[C@H]2C(=O)N[C@@H](CCC(N)=O)C(=O)N[C@@H](CCCNC(=N)N)C(=O)NCC(=O)NCCC(=O)N[C@@H](CCCCNC(=O)CN(CC(=O)NCCCC[C@H](NC(=O)CCNC(=O)CNC(=O)[C@H](CCCNC(=N)N)NC(=O)[C@H](CCC(N)=O)NC(=O)[C@@H]2CCCN2C(=O)[C@H](CCCNC(=N)N)NC(=O)[C@@H]2CSSC[C@H](NC(=O)[C@H](CO)NC(=O)[C@H](Cc3ccc(O)cc3)NC(=O)[C@@H](NC(=O)CNC(=O)CNC(C)=O)[C@@H](C)O)C(=O)N[C@@H](Cc3c[nH]cn3)C(=O)N[C@@H](Cc3ccccc3)C(=O)NCC(=O)N[C@@H](C)C(=O)N[C@@H](CC(C)C)C(=O)N[C@@H]([C@@H](C)O)C(=O)N[C@@H](Cc3c[nH]c4ccccc34)C(=O)N[C@@H](C(C)C)C(=O)N2)C(N)=O)C(=O)CCN)C(N)=O)NC(=O)[C@H](C(C)C)NC(=O)[C@H](Cc2c[nH]c3ccccc23)NC(=O)[C@H]([C@@H](C)O)NC(=O)[C@H](CC(C)C)NC(=O)[C@H](C)NC(=O)CNC(=O)[C@H](Cc2ccccc2)NC(=O)[C@H](Cc2c[nH]cn2)NC1=O)[C@@H](C)O
haemoglobin (healthy BALB/c mice; subcutaneous, 0.08 mg/kg, 6 d, single dose): 166 g/L

CC1(C)CCC(CN2CCN(c3ccc(C(=O)NS(=O)(=O)c4ccc(NCC5CCOCC5)c([N+](=O)[O-])c4)c(Oc4cnc5[nH]ccc5c4)c3)CC2)=C(c2ccc(Cl)cc2)C1
EC50 (cell killing; canine blood CD3+ T cells, dog 39; 24 h): 667 nM

CN[C@@H](C)C(=O)N[C@H]1CN(S(=O)(=O)c2cccc(S(=O)(=O)N3CC[C@H]4CC[C@@H](C(=O)NC(c5ccccc5)c5ccccc5)N4C(=O)[C@@H](NC(=O)[C@H](C)NC)C3)c2)CC[C@H]2CC[C@@H](C(=O)NC(c3ccccc3)c3ccccc3)N2C1=O
disease control rate (RECIST 1.1; advanced pancreatic cancer patients; dose not given, no prior therapy, together with: AG): 100%

O=C(O)CCc1nccc2c1[nH]c1ccccc12
serum uric acid decrease (mouse, acute hyperuricaemia model, serum; oral, 2 mg/kg; relative to: vehicle model): 50.7%

NNC(=O)c1ccncc1
TNF-α level (ELISA; Mycobacterium marinum-infected mice, spleen; intraduodenal, 10 mg/kg three times daily, 3 days post infection): 116 pg/mL and 117 pg/mL

CN(C(=O)n1cnc(-c2ccc[n+]([O-])c2)c1)C1CCCCC1
licking time score (mice, formalin paw test; oral, 3 mg/kg, late phase; direction not given): 10.9

N#Cc1ccc2c(c1)[C@H]1CCCN(C(=O)c3ccc4[nH]cnc4c3)[C@H]1C2
HbA1c change from baseline (human clinical trial; oral, 240 mg once daily, 28 d): 0%

Repeated from above:
c1ccc(-c2n[nH]cc2-c2ccnc3ccccc23)nc1
log2 fold change (kinase binding, competitor, MIB/MS competition, measured: RIO2; Candida albicans cell lysate; 1 µM; relative to: DMSO): 0.937

Cn1cc([C@H]2C[C@H]3CSC(N)=N[C@@]3(c3ccc(F)cc3F)CO2)cn1
Aβ42 level (measured: Aβx-42; Mus musculus wild-type, brain; subcutaneous, 50 mg/kg, 6 h): 0.23 ng/g

OC(CCN1CCCCC1)(c1ccccc1)C1CC2C=CC1C2 (centres unmarked)
EEG power, delta, Fz-Cz (resting-state EEG; healthy elderly humans; oral, 4 mg, eyes closed, LS mean): 7.7 µV²

CC1(C)CCC(CN2CCN(c3ccc(C(=O)NS(=O)(=O)c4ccc(NCC5CCOCC5)c([N+](=O)[O-])c4)c(Oc4cnc5[nH]ccc5c4)c3)CC2)=C(c2ccc(Cl)cc2)C1
EC50 (cell killing; canine blood CD3+ T cells, dog 39; 24 h): 667 nM

O=C(O)CNC(=O)Cc1ccccc1
sarcomere length (ventricular cardiomyocytes, C57BL/6 mouse; dose not given, 0.492 s): 1.65 µm
